Results collected from several papers.
Compare with care: the assays were run in different laboratories. ± marks the error that the study gave.
AKR1C1: Aldo-keto reductase family 1 member C1 (AKR1C1, Homo sapiens, UniProt Q04828)
C1-hpah: p-hydroxyphenylacetate 3-hydroxylase, reductase component (C1-hpah, Acinetobacter baumannii, UniProt Q6Q271)
PPO3: PPO3 (Agaricus bisporus, UniProt C7FF04)
CES3: Carboxylesterase 3 (CES3, Homo sapiens, UniProt Q6UWW8)

CC(C)c1c(-c2cccc3[nH]ccc23)[nH]c(C(=O)O)c1-c1c(Cl)ccc2[nH]ccc12 — binding (bromodomain and chromodomain panel; 25 µM, 1 h): no binding
C=C1CN(S(=O)(=O)c2ccc(C)cc2)CCCN(Cc2ccccc2)CCCN(S(=O)(=O)c2ccc(C)cc2)C1 — protein level ratio (Endoplasmic reticulum lectin 1 (ERLEC1, Homo sapiens, UniProt Q96DZ1); SILAC mass spectrometry; SUP-T1, crude membrane fraction; 10 µM, 17 h, reverse labelling; baseline: DMSO over compound): 2.11
Cc1ncsc1-c1ccc([C@@H]2CCCCCCNC(=O)C[C@@H]3N=C(c4ccc(cc4)OCCCCCC(=O)N[C@@H](C(C)(C)C)C(=O)N4C[C@H](O)C[C@H]4C(=O)N2)c2c(sc(C)c2C)-n2c(C)nnc23)cc1 — lowest concentration with clear degradation (BRD4 (Homo sapiens, UniProt O60885); degrader, immunoblotting; PC-3; 24 h): 2 to 4 nM
C[C@]12CC[C@@H]3c4cc(Br)c(O)cc4CC[C@H]3[C@@H]1CCC2=O — inhibition (AKR1C1; enzyme activity, inhibitor, absorbance; 100 µM, pH 9): 65%
CC[C@H](C)[C@H](NC(=O)[C@H](CCCCN)NC(=O)[C@H](CCCCN)NC(=O)[C@@H](NC(=O)[C@H](CCC(=O)O)NC(=O)[C@H](CCC(=O)O)NC(=O)[C@H](CCC(=O)O)NC(=O)[C@H](CO)NC(=O)[C@H](CC(C)C)NC(=O)[C@H](CC(=O)O)NC(=O)[C@H](CC(C)C)NC(=O)CNC(=O)[C@H](CCCNC(=N)N)NC(=O)[C@H](CC(C)C)NC(=O)[C@H](CO)NC(=O)CNC(=O)CNC(=O)CNC(=O)CCCC[C@@H]1SC[C@@H]2NC(=O)N[C@@H]21)C(C)C)C(=O)N[C@@H](CC(C)C)C(=O)N[C@@H](CC(=O)O)C(=O)N[C@@H](CCC(=O)O)C(=O)N[C@@H](C)C(=O)N[C@H](C(=O)N[C@@H](CCCCN)C(=O)N[C@@H](CC(=O)O)C(=O)O)C(C)C — Kd ratio (Fab B11 antibody (human); binding, biolayer interferometry; baseline: alanine mutant over wild type): 0.9
CN(C)c1ncnc2c1ncn2[C@@H]1O[C@@H]2COP(=O)(O)O[C@H]3[C@@H](O)[C@H](n4cnc5c(N(C)C)ncnc54)O[C@@H]3COP(=O)(O)O[C@H]2[C@H]1O — ΔΔG binding (ydaO riboswitch wild type (Bacillus subtilis); competition gel-shift; concentration not given; baseline: c-di-AMP): > 8.1 kcal/mol
O=C(O)Cc1ccc(O)cc1 — ΔG (C1-hpah; ITC; pH 7): -6.66 ± 0.2 kcal/mol
Oc1cc(O)c2c(c1)O[C@H](c1ccc(O)c(O)c1)[C@@H](O)[C@@H]2c1c(O)cc(O)c2c1O[C@H](c1ccc(O)c(O)c1)[C@H](O)C2 — Vmax (PPO3; inhibitor): 312 µM/min
COc1cc(F)c(C(C)C)cc1C1=C(CN2C(=O)O[C@H](c3cc(C(F)(F)F)cc(C(F)(F)F)c3)[C@@H]2C)CC(C)(C)CC1 — time of maximum inhibition (Cholesteryl ester transfer protein (Homo sapiens, UniProt P11597); enzyme activity; healthy male subjects, plasma; oral, 400 mg single dose): 7.3 h
Cc1ncsc1-c1ccc([C@@H]2CCCCCCNC(=O)C[C@@H]3N=C(c4ccc(cc4)OCCCCC(=O)N[C@@H](C(C)(C)C)C(=O)N4C[C@H](O)C[C@H]4C(=O)N2)c2c(sc(C)c2C)-n2c(C)nnc23)cc1 — degradation (Bromodomain-containing protein 4, long isoform (BRD4, Homo sapiens, UniProt O60885); degrader, immunoblotting, measured: BRD4 long isoform; PC-3; 10 nM, 24 h): 78%
C[C@]12CCC[C@H]1[C@@H]1CCc3cc(O)ccc3[C@H]1CC2 — inhibition (AKR1C1; enzyme activity, inhibitor, absorbance; 100 µM, pH 9): 12.5%
Cc1ccc2c(c1Br)C(O)(CC(=O)c1ccc3c(c1)OCO3)C(=O)N2 (stereo not drawn) — binding (UAP1 (Homo sapiens, UniProt Q16222); surface plasmon resonance; concentration not given): no binding
COc1cc(C(=O)NC2CCC(N3CCN(CC4CCC5(CCCC5)C4)CC3)CC2)c(F)cc1Nc1ncc2c(n1)N(C1CCCC1(F)F)CC(F)(F)C(=O)N2C (stereo not drawn) — inhibition (CSF1R (Homo sapiens, UniProt P07333); cell-free assay, TR-FRET; 10 µM): 1.22%
O=C(NCCCN1CCC(Cc2ccccc2)CC1)c1cccc2ccccc12 — IC50 (SLC6A3 (Homo sapiens, UniProt Q01959); dopamine uptake, inhibitor; HEK293; added: [3H]dopamine): 8.09 µM
Cc1cc(N2CCC(CO)(C3CC3)C2=O)cc(C(=O)NCc2cc(F)cc(-c3cnn(C)c3)c2)n1 (stereo not drawn) — melting temperature (Proline--tRNA ligase (Plasmodium falciparum, UniProt Q8I5R7); thermal shift; no substrate): 69.2 °C
NC(=O)CN1C(=O)C(O)(CC(=O)c2cccc(N)c2)c2ccccc21 (stereo not drawn) — ΔG (uncharacterized protein (Leishmania donovani, UniProt A0A3Q8IA09); ITC): -8.02 kcal/mol
O=C(CCn1c(=O)oc2ccccc21)N(c1ccc(F)cc1)c1ccc(F)cc1 — maximum fold increase (Proteasome subunit alpha type-2/Proteasome subunit alpha type-6, 20S proteasome (Homo sapiens, UniProt P25787+P60900); proteolysis, activator, fluorogenic peptide; purified 20S proteasome; up to 30 µM, added: Suc-LLVY-AMC, Z-LLE-AMC, Boc-LRR-AMC; baseline: vehicle): 4.8 ± 1.1
COc1ccc(NC(=O)CCCCc2ccccc2)c(C)n1 — specific activity (CES3; substrate; 50 µM, pH 8, 37 °C, enzyme purity 3%): < 1 pmol/min/µg
C[C@@H]1O[C@@H](OC[C@H]2O[C@@H](Oc3c(-c4ccc(O)cc4)oc4cc(O)cc(O)c4c3=O)[C@H](O)[C@@H](O)[C@@H]2O)[C@H](O)[C@H](O)[C@H]1O — induction (Peroxisome proliferator-activated receptor gamma (Rattus norvegicus, UniProt O88275); reporter gene, agonist, luciferase; HepG2; 50 µg/mL): 2.31
CC(C=CC=CC=CC1=C(C)CCCC1(C)C)=CCO — melting temperature (Rhodopsin, apoprotein (opsin) (RHO, Bos taurus, UniProt P02699); regenerated pigment stability, thermal shift, BFC probe; ROS disk membranes): 60.9 °C
O=C(O)CCc1ccc(O)cc1 — ΔG (C1-hpah; ITC; pH 7): -5.13 ± 0.02 kcal/mol
CCCCCCCC(=O)Nc1ccc(OC)nc1 — specific activity (CES3; substrate; 50 µM, pH 8, 37 °C, enzyme purity 3%): 6.6 pmol/min/µg
CC(C)C[C@H](NC(=O)[C@H](CCC(=O)O)NC(=O)[C@@H](N)CS)C(=O)N[C@@H](CC(N)=O)C(=O)O — remaining activity (PPO3; enzyme activity, inhibitor; 100 µM): 72.8%
O=Cc1ccc(-n2ccnc2Br)nc1 — stabilization factor (14-3-3 protein gamma, with Pin1 peptide (YWHAG, Homo sapiens, UniProt P61981); fluorescence anisotropy; 100 µM; baseline: DMSO): 2.4 fold
CCN(CC)C(=O)c1ccc(O)c(OC)c1 — contrast (Heat shock protein HSP 90-alpha, N-terminal domain (HSP90AA1, Homo sapiens, UniProt P07900); binding, ligand-observed NMR titration; ligand to protein ratio 56): 72%
CC[C@H](C)[C@H](NC(=O)[C@H](Cc1ccc(O)cc1)NC(=O)[C@@H](NC(=O)[C@H](CCCNC(=N)N)NC(=O)[C@@H](N)CC(=O)O)C(C)C)C(=O)N[C@@H](Cc1c[nH]cn1)C(=O)N1CCC[C@H]1C(=O)O — Km (angiotensin peptidase; substrate; control sheep CSF): 8.5 µM
COC(=O)C1=C(C)NC(C)=C(C(=O)OC)C1c1cccc(NC(=O)NCCCN2CCC(c3cccc(OC)c3)CC2)c1 — binding affinity decrease (NPY1R (Homo sapiens, UniProt P25929, T280A); radioligand binding; concentration not given; baseline: wild type): ~330 fold
